Results gathered from unrelated publications.
Each line is one published result; not all experiments were run side by side.

For `C[C@H](CCC(=O)N[C@@H](CCCCNC(=O)C(F)(F)F)C(=O)O)[C@H]1CC[C@H]2[C@@H]3[C@H](O)C[C@@H]4C[C@H](O)CC[C@]4(C)[C@H]3C[C@H](O)[C@]12C`, the AUC(0-t) was 54 µM·h (mouse, plasma; oral, 50 mg/kg).
For `CC(C)(CCCC/C=C/CCCCCC(C)(C)C(=O)O)C(=O)O`, the AUC(0-t) was 128000 ng·h/mL (CD-1 mouse, plasma; oral, 10 mg/kg).
`COc1nc(CC=C(C)CC=CC(C)=CC(C)C(OC2OC(CO)C(O)C(O)C2O)C(C)=CCO)c(C)c(O)c1OC` (stereo not drawn) gave an AUC(0-t) of 363 ng·h/mL (male C57BL/6 mouse, plasma; intravenous, 2 mg/kg).
With `CC(C)[C@H]1NC(=O)C[C@H]2/C=C/CCSSC[C@@H](NC1=O)C(=O)N[C@H](Cc1cccc3ccccc13)C(=O)NCC(=O)O2` the AUC was 2.22 ng·h/mL (nude mouse, blood; oral, 24 mg/kg).
For `CCCCCCCC(=O)NC[C@H](NC(=O)[C@H](CO)NC(=O)CN)C(=O)N[C@@H](Cc1ccccc1)C(=O)N[C@@H](CC(C)C)C(=O)N[C@@H](CO)C(=O)N1CCC[C@H]1C(=O)N[C@@H](CCC(=O)O)C(=O)N[C@@H](Cc1c[nH]cn1)C(=O)N[C@@H](CCC(N)=O)C(=O)N[C@@H](CCCNC(=N)N)C(=O)N[C@H](C(=O)N[C@@H](CCC(N)=O)C(=O)N[C@H](C(=O)N[C@@H](CCCNC(=N)N)C(=O)N1CCC[C@H]1C(=O)N1CCC[C@H]1C(=O)N[C@@H](Cc1c[nH]cn1)C(=O)N[C@@H](CCCCN)C(=O)N[C@@H](C)C(=O)N1CCC[C@H]1C(=O)N[C@@H](Cc1c[nH]cn1)C(=O)N[C@H](C(=O)N[C@H](C(=O)O)C(C)C)C(C)C)C(C)C)C(C)C`, the AUC(0-inf) was 153 ng·h/mL (mouse, plasma; intraperitoneal, 7.2 mg/kg).
`C[C@@](O)(C(F)F)[C@H](NC(=O)c1ccc(C#CC#CC2CC2)cc1)C(=O)NO` has an AUC(0-inf) of 24200 ng·h/mL (mouse, plasma; intraperitoneal, 40 mg/kg).
With `O=c1cc(-c2ccccc2)oc2c(Br)c(O)c(O)c(O)c12` the AUC(0-t) was 2860 ng·h/mL (C57BL/6 mouse, plasma; intravenous, 10 mg/kg, single dose).
`CSCC[C@H](NC(=O)CNC(=O)[C@H](CC(=O)O)NC(=O)[C@@H](NC(=O)[C@@H](NC(=O)[C@@H](NC(=O)CNC(=O)[C@H](CCC(=O)O)NC(=O)[C@H](CCSC)NC(=O)[C@H](CC(=O)O)NC(=O)[C@H](C)NC(=O)[C@H](C)NC(=O)[C@@H](NC(=O)[C@H](CO)NC(=O)[C@@H](N)CC(C)C)[C@@H](C)O)C(C)C)C(C)C)[C@@H](C)O)C(=O)N[C@@H](C)C(=O)N[C@@H](CO)C(=O)NCC(=O)N[C@@H](CC(C)C)C(=O)N[C@@H](CC(=O)O)C(=O)N[C@@H](CCCCN)C(=O)N[C@@H](CC(=O)O)C(=O)N[C@@H](Cc1ccc(O)cc1)C(=O)N[C@@H](CC(C)C)C(=O)N[C@@H](CCCCN)C(=O)N1CCC[C@H]1C(=O)N[C@@H](CC(=O)O)C(=O)N[C@@H](CC(=O)O)C(=O)O` gave an AUC(0-t) of 278000 ng·h/mL (male CD-1 mouse, serum; intravenous, 480 mg/kg).
`CS(C)(=O)=Nc1ccc(-c2ccc(-c3nc4cc(O[C@@H]5CO[C@H]6[C@@H]5OC[C@H]6O)[nH]c4cc3F)cc2)cc1` has an AUC of 2850 ng·h/mL (female C57BL/6 mouse, plasma; intravenous, 3 mg/kg).

Repeated from above:
For `CC(C)(CCCC/C=C/CCCCCC(C)(C)C(=O)O)C(=O)O`, the AUC(0-t) was 128000 ng·h/mL (CD-1 mouse, plasma; oral, 10 mg/kg).
